Measured values from different studies.
Each line is one published result; not all experiments were run side by side.
Cell line: Caco-2

Compound	tested at	time	pH	baseline	efflux ratio
CCOc1cc(-c2nncn2C)ccc1Nc1ncc2cc(C)nc(NCC(C)(C)C)c2n1	10 µM	–	–	–	0.79
CC(=O)CC(c1ccccc1)c1c(O)c2ccccc2oc1=O (stereo not shown)	10 µM	2 h	–	B-A over A-B	0.542
Cc1ccc(Nc2c(-c3ccc(F)cc3)nc3n2CC(=O)NC3)cc1	–	–	–	A-B over B-A	1.04
Cc1cc(C)c(CNC(=O)c2cc(Cl)c3c(c2C)O[C@@](C)([C@H]2CC[C@H](N(C)C)CC2)O3)c(=O)[nH]1	30 µM	–	–	–	33.7
CC(C)C[C@@H]1NC(=O)CN(C)C(=O)[C@H](Cc2ccccc2)NCC2=CC=C(CNC1=O)O2	–	–	–	–	5
O=C1c2cccc(O)c2C(=O)c2c(O)cccc21	100 µg/mL	2 h	–	B-A over A-B	> 2
Cc1ccc(Nc2c(-c3ccc(F)cc3)nc3n2CCNC3)cc1	–	–	–	A-B over B-A	3.47
O=C(Nc1c2c(cc3c1CCC3)CCC2)NS(=O)(=O)/C=C/c1nccs1	2 µM	120 min	pH 7.4	B-A over A-B	1.15
C#Cc1c(F)ccc2cc(O)cc(-c3ncc4c(N5CC6CCC(C5)N6)nc(OC[C@@]56CCCN5C[C@H](F)C6)nc4c3F)c12	–	–	–	without over with verapamil	0.509
Cc1ccc(Nc2c(-c3ccc(F)cc3)nc3n2CCNC3(C)C)cc1	–	–	–	A-B over B-A	2.24

Excerpt of the above:
Compound	tested at	time	pH	baseline	efflux ratio
Cc1ccc(Nc2c(-c3ccc(F)cc3)nc3n2CCNC3(C)C)cc1	–	–	–	A-B over B-A	2.24
Cc1cc(C)c(CNC(=O)c2cc(Cl)c3c(c2C)O[C@@](C)([C@H]2CC[C@H](N(C)C)CC2)O3)c(=O)[nH]1	30 µM	–	–	–	33.7
